# Published values from different studies.
# Values joined by “and” are separate records of one study, mostly repeats; a detail may differ. ± gives the spread as reported.
Compound,assay,system,conditions,how to read,quantity,value
C=CC(=O)Nc1cc(Nc2nccc(-c3cn(C)c4ccccc34)n2)c(OC)cc1N(C)CCNC,storage stability,human dried blood spot,"2 h, on ice, LLOQ level",,recovery,102%
CN(O)C(=O)CCC(=O)NCCCN(CCCCN(CCCNC(=O)CCC(=O)N(C)O)C(=O)CCC(=O)N(C)O)C(=O)CCC(=O)N(C)O.[89Zr],,"mouse, bone",24 h,,tracer uptake,0.01 %ID/g
CCCC[C@H](OC(C)=O)c1ccccc1C(=O)O,,"Sprague-Dawley rats, both sexes, whole blood","intravenous, 1.25 mg/kg single dose",,clearance,9.17 ± 1.28 mL/min/kg
N=C(N)NCCC[C@@H]1NC(=O)[C@H](CO)NC(=O)[C@@H](NC(=O)[C@H](CO)NC(=O)[C@H](CO)NC(=O)[C@H](Cc2c[nH]c3ccccc23)NC(=O)CNC(=O)[C@H](CO)NC(=O)[C@@H](N)Cc2c[nH]c3ccccc23)CSSC[C@@H](C(=O)NCC(=O)O)NC(=O)[C@H](CO)NC1=O,,healthy elderly humans,"dose not given, younger subgroup, higher dose",,adaptive tracking performance decrease,3 to 5%
COc1ccc(C(N)=O)cn1,,"Han Wistar rats, male, plasma","oral, 30 mg/kg, 4.00 h",,plasma concentration,4.3 µM
COc1cccc(OC)c1-c1cc(C(=O)NC2(C(=O)O)C3CC4CC(C3)CC2C4)nn1-c1ccc(C(=O)N(C)CCCN(C)C(=O)[C@H](CCCCNC(=O)[C@H](CC(C)C)NC(=O)C2OC2C(=O)O)NC(=O)CN2CCN(CC(=O)[O-])CCN(CC(=O)[O-])CCN(CC(=O)[O-])CC2)cc1C(C)C.[177Lu+3] (mixture of isomers),,mouse HT-29 xenograft,"72 h, biodistribution",reference: tumour over stomach,tumour-to-stomach ratio,28.8
Oc1ccc(Nc2ncnc3[nH]c(/C=C/c4ccccc4)nc23)cc1,HPLC,"solution, dark",before light exposure,,purity,99.4%
C[C@@H](Nc1nc2c(cnn2C(C)(C)C)c(=O)n1Cc1cccc(F)c1)c1ccc(Cl)cc1,,C57BL/6J mouse,"intravenous, 2.5 mg/kg",,Vss,18900 ± 2930 mL/kg
CCCCN1C(=O)c2cccc3c(NCCCN4CCOCC4)ccc(c23)C1=O,,dichloromethane,,,fluorescence lifetime,10.3 ns
O=C(Nc1cnccc1-c1ccc([18F])cc1)c1ccnc(NC(=O)C2CC2)c1,ex vivo gamma counting,"GSK-3β transgenic mice, late-stage, muscle","intravenous, 120 min",,mean SUV,0.16
C=CC(=O)Nc1cc(Nc2nccc(-c3c[nH]c4ccccc34)n2)c(OC)cc1N(C)CCN(C)C,storage stability,human plasma,"30 d, -80 °C, LQC level",,recovery,94.4%
CN1C(=O)[C@@H](Cc2ccc(O)c(I)c2)NC(=O)CNC(=O)[C@H](Cc2ccc3ccccc3c2)NC(=O)[C@H](CCCNC(=N)N)NC(=O)[C@H]1CCCNC(=O)c1ccc(CNC(=O)CN2CCN(CC(=O)O)CCN(CC(=O)O)CCN(CC(=O)O)CC2)cc1 [lutetium-177 labelled],2,"human, extrapolated from mouse, breasts",,,total absorbed dose,0.0012 mGy/MBq
COc1cccc(OC)c1-c1cc(C(=O)NC2(C(=O)O)C3CC4CC(C3)CC2C4)nn1-c1ccc(C(=O)N(C)CCOCCN(C)C(=O)[C@H](CCCCNC(=O)[C@H](CC(C)C)NC(=O)C2OC2C(=O)O)NC(=O)CN2CCN(CC(=O)[O-])CCN(CC(=O)[O-])CCN(CC(=O)[O-])CC2)cc1C(C)C.[177Lu+3] (mixture of isomers),,mouse HT-29 xenograft,"72 h, biodistribution",reference: tumour over stomach,tumour-to-stomach ratio,35.2
COc1ccc2c(c1)CCn1c[n+]3c(c1-2)-c1ccc(OC)cc1CC3,,"female NSG mice, blood","6 mg/kg, day 14, 5 days per week",,Monocytes,14.3 ± 3.23%
N#C[C@@H]1CC(F)(F)CN1C(=O)CNC(=O)c1ccnc2c(NC(=O)[C@H](CCCCNC(=O)CCOCCOCCOCCOCCOCCOCCNC(=O)CN3CCN(CC(=O)[O-])CCN(CC(=O)[O-])CCN(CC(=O)[O-])CC3)NC(=O)CCCc3ccc(I)cc3)cccc12.[177Lu+3],,PBS,"1 h, 37 °C, 177Lu-labelled",,radiochemical stability,99.78 ± 0.3%
COCC1CN(C2CCN(c3cc(OC)c(Nc4ncc(Br)c(Nc5ccc6c(c5P(C)(C)=O)OCCO6)n4)cc3C)CC2)C1,,"EGFR-mutant NSCLC patients, plasma","oral, 60 mg single dose, geometric mean",,AUC(0-t),11100 ng·h/mL
C/C(N)=N/C(=N\S(=O)(=O)c1ccc(C(F)(F)F)cc1)N1C[C@H](c2ccccc2)C(c2ccc(Cl)cc2)=N1,,"male C57BL/6 mouse, lung","intravenous, 5 mg/kg",,Cmax,6540 ng/mL
CCCCN1C(=O)c2cccc3c(NCCN4CCOCC4)ccc(c23)C1=O,,chloroform,,,Stokes shift,69 nm
N#C[C@@H]1CC(F)(F)CN1C(=O)CNC(=O)c1ccnc2c(NC(=O)CCOCCOCCOCCOCCOCCOCCNC(=O)C(CCCCNC(=O)CN3CCN(CC(=O)[O-])CCN(CC(=O)[O-])CCN(CC(=O)[O-])CC3)NC(=O)CCCc3ccc(I)cc3)cccc12.[68Ga+3] (stereo partly shown),,PBS,"60 min, 37 °C, 68Ga-labelled",,radiochemical stability,99.12 ± 0.6%
CCCCN1C(=O)c2cccc3c(NCCCCCCCCN4CCOCC4)ccc(c23)C1=O,,ethylene glycol,,,fluorescence quantum yield,0.77
C=CC(=O)N1CCC[C@@H](c2ccc(C(N)=O)c3[nH]ccc23)C1,,"mouse, TMD8 tumour-bearing, plasma","30 mg/kg twice daily, 12 h",,trough concentration,0.113 ng/mL
CCCCN1C(=O)c2cccc3c(NCCCCCN4CCOCC4)ccc(c23)C1=O,,dichloromethane,,,Stokes shift,79 nm
O=C(Nc1cnccc1-c1ccc([18F])nc1)c1ccnc(NC(=O)C2CC2)c1,ex vivo gamma counting,"GSK-3β transgenic mice, early-stage, left kidney","intravenous, 120 min",,mean SUV,0.244
CCCCN1C(=O)c2cccc3c(NCCCCN4CCOCC4)ccc(c23)C1=O,,DMF,,,Stokes shift,85 nm
Cc1cc(-c2ccc(C(=O)[C@@H]3CCCC[C@H]3C(=O)Nc3cnn4c3C(=O)NCC4)cc2)[nH]n1,,"human, faeces","oral, 200 mg, 0-168 h",reference: dose,cumulative radioactivity recovery,74.3% and 73.8% and 75.7% and 81.3%
OCC1OC(n2cnc3c(NCc4ccc(Br)s4)ncnc32)C(O)C1O (stereo not shown),equilibrium dialysis,human plasma,"5 µg/mL, 4 h, pH 7.4",,fraction unbound,0.147
O=C(NS(=O)(=O)c1cccs1)c1cc2ccccc2n1Cc1ccc(Br)c2ccccc12,,"Sprague-Dawley rat, male, plasma","intravenous, 2 mg/kg",,clearance,16.3 mL/min/kg
CCCCN1C(=O)c2cccc3c(NCCCCCCN4CCOCC4)ccc(c23)C1=O,,ethyl acetate,,,Stokes shift,84 nm
O=C1c2sc(-c3ccc(N4CCC(F)C4)nc3F)nc2CCN1c1cccnc1 (stereo not shown),,"CD1 mouse, brain","i.v., dose not given, 0.033 h",,concentration,647 ng/g and 542 ng/g and 652 ng/g
CC(C)(O)c1ncc([S@](N)(=O)=NC(=O)Nc2c3c(cc4c2CCC4)CCC3)s1,refers to: any adverse event,healthy human volunteers,"oral, 25 mg twice daily, 14 days, enteric-coated tablet",,subjects with adverse events,63%
CC[C@H](C)[C@H](NC(=O)[C@H](N)Cc1ccc(O)cc1)C(=O)N[C@H]1CSSC[C@@H](C(=O)N(C)[C@H](C(=O)N[C@@H](CCCCN)C(=O)N[C@@H](CCCCN)C(N)=O)[C@@H](C)CC)NC(=O)[C@H](CCCNC(=N)N)NC(=O)[C@H](Cc2c[nH]cn2)NC(=O)[C@H](C)NC(=O)CN(C)C(=O)[C@H](Cc2c[nH]c3ccccc23)NC(=O)[C@H](CC(=O)O)NC(=O)[C@H](CCC(N)=O)NC(=O)[C@H](Cc2cn(C)c3ccccc23)NC(=O)[C@H](C(C)C)NC1=O,SPR-based competition,"cynomolgus monkey, vitreous","intravitreal, 500 µg single, 2160 h, mean of eyes",,concentration,100 to 120 nM
CC[C@H](C)[C@@H]1NC(=O)[C@H](Cc2ccc(O)cc2)NC(=O)CCCSC[C@@H](C(=O)N(CC(=O)N[C@@H](CC(C)C)C(=O)NCC(N)=O)Cc2ccc(F)cc2)NC(=O)[C@H](CC(N)=O)NC(=O)[C@H](CCC(N)=O)NC1=O,,"healthy human, plasma","intranasal, 400 µg every 3 h, after first dose",,terminal half-life,25.2 min
N#C[C@@H]1CC(F)(F)CN1C(=O)CNC(=O)c1ccnc2c(NC(=O)[C@@H](N)CCCCNC(=O)CCOCCOCCOCCOCCOCCOCCNC(=O)CN3CCN(CC(=O)[O-])CCN(CC(=O)[O-])CCN(CC(=O)[O-])CC3)cccc12.[177Lu+3],,PBS,"1 h, 37 °C, 177Lu-labelled",,radiochemical stability,99.12 ± 0.8%
[11CH3]N1CCC(NC(=O)c2cc(-c3c(O)cc(O)cc3Oc3ccc([N+](=O)[O-])cc3)on2)CC1,,"healthy female Wistar rats, kidneys","intravenous, 10 min",,standardized uptake value,12.5 ± 1.6 g/mL
Fc1cncc(-c2ccc3[nH]c4ncnc(N[C@H]5CC[C@H](N6CCOCC6)CC5)c4c3c2)c1,,"ICR mice, plasma","intravenous, 1 mg/kg",,clearance,145 ± 90.7 mL/min/kg
CCc1cnc(NC(=O)c2cc(S(=O)(=O)N3CCOCC3)ccc2N(C)C2CCCC2)s1,,mouse,"10 mg/kg, 3 doses",,serum albumin,3.1 g/dL
O=C1c2sc(-c3ccc(N4CCC(CO)CC4)nc3F)nc2CCN1c1cccnc1,HPLC,"rhesus monkey, plasma","intravenous, 14.98 min",,parent fraction,0.57
Cc1ccc(OCC(=O)N(Cc2cccs2)c2ccn[nH]2)cc1,,Gottingen pig plasma,"750 ng/mL, 24 h, 37 °C",,remaining compound,91.7%
[2H]C([2H])([18F])Oc1cc(C(=O)OCC2CCN(CCCC)CC2)ccc1N,"radioligand hydrolysis, esterase inhibitor",rhesus monkey plasma,concentration not given,,inhibition,94 ± 2%
C=CC(=O)N1CCCC(n2c(=O)c3ncccc3n(Cc3ccc(Oc4ccccc4)cc3)c2=O)C1 (stereo not shown),,"male BALB/c mouse, plasma","oral, 200 mg/kg, 0.5 h",,plasma concentration,32200 ng/mL
CN(Cc1cc(C2CC2)on1)C(=O)c1cccc(-c2ccc(F)cc2)c1,,"male ICR/CD-1 mouse, liver microsomes","2 µM, 120 min, pH 7.5, with: 1-aminobenzotriazole 500 µM, preincubated 30 min",,remaining compound,62.3%
CC(C)[C@H](NC(=O)[C@H](Cc1c[nH]c2ccccc12)NC(=O)[C@H](CCCNC(=N)N)NC(=O)[C@H](CCCNC(=N)N)NC(=O)[C@@H](NC(=O)[C@@H](NC(=O)[C@H](CCCNC(=N)N)NC(=O)[C@@H](NC(=O)[C@@H](NC(=O)[C@H](CCCNC(=N)N)NC(=O)[C@H](CCCNC(=N)N)NC(=O)[C@@H](NC(=O)[C@H](Cc1c[nH]c2ccccc12)NC(=O)[C@H](CCCNC(=N)N)NC(=O)[C@H](CCCNC(=N)N)NC(=O)[C@@H](NC(=O)[C@H](CCCNC(=N)N)NC(=O)[C@H](CCCNC(=N)N)NC(=O)[C@@H](NC(=O)[C@H](Cc1c[nH]c2ccccc12)NC(=O)[C@H](CCCNC(=N)N)NC(=O)[C@@H](N)CCCNC(=N)N)C(C)C)C(C)C)C(C)C)C(C)C)C(C)C)C(C)C)C(C)C)C(=O)N[C@@H](CCCNC(=N)N)C(=O)N[C@@H](CCCNC(=N)N)C(=O)O,,"CD1 mouse, plasma","intravenous, 15 mg/kg, 16 h, [14C]-labelled compound",,sodium,157 mEq/L
C=C(NC(=O)c1csc(-c2nc3c(cc2O)-c2nc(cs2)C(=O)NC(C(C)O)C(=O)NC(=C(C)OC)c2nc(cs2)C(=O)NC2c4nc(cs4)C(=O)NC(COC(=O)c4c5c6c(cccc6n4O)COC(=O)C(OC4CC(C)(O)C(N(C)C)C(C)O4)C2OC5)c2nc-3cs2)n1)C(N)=O (stereo not shown),,"cynomolgus monkey, both sexes, plasma","intravenous infusion, 1 mg/kg single dose",,volume of distribution,932 mL/kg
